Experimental data of several laboratories.
Lines come from different studies, so protocols differ. ± gives the spread as reported.

| Structure (SMILES) | cell line | assay | system | setting | scale | viability |
| --- | --- | --- | --- | --- | --- | --- |
| CC(C)CCC[C@@H](C)[C@H]1CCC([C@@H]2CC[C@H]3C[C@H](O)CC[C@]3(C)[C@@H]2O)[C@]1(C)CC(=O)O (stereo partly drawn) | HEK293T | CellTiter-Blue |  | 10 µM |  | > 100% |
| O=C(Cc1c(-c2ccccc2)n[nH]c1-c1ccccc1)NO | SH-SY5Y | CytoTox-ONE |  | 30 µM, 24 h, 10% FBS |  | 92% |
| CC(C)(C)[C@H](NC(=O)[C@H](CCONC(=N)N)NC(=O)Cc1ccc(CNC(=N)N)cc1)C(=O)N[C@@H](CCONC(=N)N)C(=O)NCc1ccc(C(=N)N)cc1 | primary human hepatocytes | MTS |  | up to 100 µM, 24 h |  | no effect |
| COc1ccc([C@@H]2CC(=O)c3c(O)cc(O[C@@H]4O[C@H](CO[C@@H]5O[C@@H](C)[C@H](O)[C@@H](O)[C@H]5O)[C@@H](O[C@H]5O[C@H](CO)[C@@H](O)[C@H](O)[C@H]5O)[C@H](O)[C@H]4O)cc3O2)cc1O | MRC5 | cell growth or viability, MTS |  | 150 µg/mL, 48 h |  | 48.4% |
| O=S(=O)(O)CC1CSSCC(CS(=O)(=O)O)SS1 (stereo not drawn) | OECM1 |  |  | 50 or 100 µM, 4 d |  | no effect |
| CC(C)Cc1ccc(C(C)C(=O)N/N=C/c2ccc(OCC(=O)N/N=C/c3cccc(O)c3)cc2)cc1 (stereo not drawn) | HEK293 | MTT |  | 40 µM, 48 h |  | 55.2% |
| CCCCCCCCCCN1C(=O)/C(=N\NC(=N)N)c2cc(C)ccc21 | BJ normal fibroblasts | MTT |  | up to 2 µg/mL, 24 h |  | > 80% |
| CC(C)Cc1ccc(C(C)C(=O)NN=Cc2ccc(OCC(=O)NN=Cc3cccc([N+](=O)[O-])c3)cc2)cc1 (stereo not drawn) | HEK293 | MTT |  | 150 µM, 48 h |  | 91.2% |
| Cc1ncsc1-c1ccc(CNC(=O)[C@@H]2C[C@@H](O)CN2C(=O)[C@@H](NC(=O)COCc2cn(CCOCCOCCOc3cc(C(=O)c4cc(Cl)ccc4NS(=O)(=O)c4ccc(C(C)(C)C)cc4)cc[n+]3[O-])nn2)C(C)(C)C)cc1 | HEK293T |  |  | 0.1 to 2500 nM, 14 h |  | not toxic |
| Cc1cc(C)cc(C(=O)Nc2cccc(S(N)(=O)=O)c2)c1 | HEK293T | MTT | serum-free medium | 100 µM, 24 to 48 h | baseline: untreated | 86 ± 0.3% |
| COc1cc(C=CC(=O)CC(=O)C=Cc2ccc(OCC(=O)NCCOCCOCCOCC(F)(F)F)c(OC)c2)ccc1O | SH-SY5Y | MTT |  | 0.9 µM, 24 h |  | 95.2 ± 6% |
| CC(C)Cc1ccc(C(C)C(=O)N/N=C/c2ccc(OCC(=O)N/N=C/c3c(O)ccc4ccccc34)cc2)cc1 (stereo not drawn) | HEK293 | MTT |  | 100 µM, 48 h |  | 25.7% |
| CC(C)CCC[C@@H](C)[C@H]1CC[C@@H]([C@@H]2CC[C@H]3C[C@H](O)CC[C@]3(C)C2=O)[C@]1(C)CC(=O)NCCS(=O)(=O)O | HEK293T | CellTiter-Blue |  | 10 µM |  | > 100% |
| N=C(N)NCCC[C@@H]1NC(=O)[C@H](CCCNC(=N)N)NC(=O)[C@H](CCCNC(=N)N)NC(=O)[C@H](Cc2c[nH]c3ccccc23)NC(=O)[C@H](Cc2c[nH]c3ccccc23)NC(=O)[C@H](Cc2c[nH]c3ccccc23)NC(=O)[C@H](Cc2c[nH]c3ccccc23)NC(=O)[C@H](CCCNC(=N)N)NC1=O | HEK293T | MTS |  | 50 µM, 24 h |  | ~60% |
| O=C(C=Cc1ccc(O)c(OC(F)(F)F)c1)C1=C(C=Cc2ccc(O)c(OC(F)(F)F)c2)OCC1 | SH-SY5Y | MTT |  | 0.9 µM, 24 h |  | 94.1 ± 3.4% |

Excerpt of the above:
| Structure (SMILES) | cell line | assay | system | setting | scale | viability |
| --- | --- | --- | --- | --- | --- | --- |
| O=S(=O)(O)CC1CSSCC(CS(=O)(=O)O)SS1 (stereo not drawn) | OECM1 |  |  | 50 or 100 µM, 4 d |  | no effect |
| CC(C)Cc1ccc(C(C)C(=O)NN=Cc2ccc(OCC(=O)NN=Cc3cccc([N+](=O)[O-])c3)cc2)cc1 (stereo not drawn) | HEK293 | MTT |  | 150 µM, 48 h |  | 91.2% |
